{"data": "Published values gathered from unrelated publications", "BCHE": "Cholinesterase (BCHE, Homo sapiens, UniProt P06276)", "Oprk1": "Kappa-type opioid receptor (Oprk1, Mus musculus, UniProt P33534)", "note": "Compare with care: the assays were run in different laboratories. ± marks the error that the study gave."}
{"Substance": "Cc1ccc(S(=O)(=O)Nc2ccccc2N2CCCCC2)s1", "target": "BCHE", "test": "enzyme activity, inhibitor", "conditions": "Triton-containing buffer", "measurement": "IC50", "value": "inactive"}
{"Substance": "C=CC(=O)N1C[C@H](c2ccc(Br)cc2)[C@@H]1C(=O)Nc1cccc2cccnc12", "target": "NSUN2 (Homo sapiens, UniProt Q08J23)", "test": "methyltransferase activity, covalent inhibitor", "measurement": "kinact/KI", "value": "67 ± 15 M⁻¹ s⁻¹"}
{"Substance": "CC#C/C(=N\\OC[C@H]1COCCN1)c1ccc2ncnc(Nc3ccc(OCc4cccc(F)c4)c(Cl)c3)c2c1", "target": "PRKACA (Homo sapiens, UniProt P17612)", "test": "kinase activity", "conditions": "10 µM", "measurement": "inhibition", "value": "-7.2%"}
{"Substance": "CN(C(=O)Cc1ccc(Cl)c(Cl)c1)[C@H](CN1CCCC1)c1ccccc1", "target": "Oprk1", "test": "G protein activation, agonist", "conditions": "concentration not given", "how to read": "baseline: dynorphin A", "measurement": "log intrinsic relative activity", "value": "0.75 ± 0.08"}
{"Substance": "COc1ccc(OC[C@H]2c3cccn3CC(=O)N2Cc2cccc(F)c2)cc1", "target": "Glutamate receptor ionotropic, NMDA 2D, with GluN1 (Rattus norvegicus, UniProt Q62645)", "test": "ion current, whole-cell patch clamp", "system": "HEK293T cells, transfected", "conditions": "10 µM, together with: 1 mM glutamate for 10 ms plus 100 µM glycine", "measurement": "charge transfer", "value": "-110 ± 60 nA·ms"}
{"Substance": "O=C(NOCC1CC1)c1cc(Br)c(F)c(F)c1Nc1ccc(I)cc1Cl", "target": "BCHE", "test": "enzyme activity, inhibitor", "conditions": "Triton-containing buffer", "measurement": "IC50", "value": "inactive"}
{"Substance": "CN(C(=O)Cc1cccc2occc12)[C@H]1CC[C@@]2(CCCO2)C[C@@H]1N1CCCC1", "target": "Oprk1", "test": "receptor internalization, agonist", "conditions": "concentration not given", "how to read": "baseline: dynorphin A", "measurement": "log intrinsic relative activity", "value": "0.37 ± 0.26"}
{"Substance": "CC1(C)S[C@@H]2CS[C@@H](CS)N2[C@H]1C(=O)O", "target": "VIM-2 (Escherichia coli, UniProt Q5U7L7, R205L)", "test": "slow-binding inhibitor", "system": "Klebsiella pneumoniae", "conditions": "together with: nitrocefin", "measurement": "k2 (E*I formation)", "value": "1e-05 ± 0.003 s⁻¹"}
{"Substance": "CCN1CCN(Cc2ccc(NC(=O)c3ccc(C)c(/C=C/c4cnc5[nH]ccc5c4OC)c3)cc2C(F)(F)F)CC1", "target": "ACVR1 (Homo sapiens, UniProt Q04771, R206H)", "test": "inhibitor, cell-based kinome screen", "conditions": "5 µM", "how to read": "baseline: no inhibitor", "measurement": "log2 fold change", "value": -0.37}
{"Substance": "CCN(CC)C(=O)Oc1ccc(C(=O)Nc2cccc3cc[nH]c23)cc1", "target": "HTR3A (Homo sapiens, UniProt P46098)", "test": "modulator, two-electrode voltage clamp", "system": "Xenopus oocytes", "conditions": "20 µM, together with: 1 µM serotonin", "how to read": "baseline: agonist alone", "measurement": "current response", "value": "94.5 ± 4.5%"}
{"Substance": "CS(=O)(=O)NC(=O)C(Cc1ccc(I)cc1)Nc1nc(-c2ccc(Cl)c(Cl)c2)cs1 (stereo not shown)", "target": "glf (Mycobacterium tuberculosis, UniProt P9WIQ1)", "test": "enzyme activity, inhibitor", "conditions": "50 µM", "measurement": "inhibition", "value": "> 90%"}
{"Substance": "Cc1cc(=O)oc2cc(NC(=O)[C@H](CCCNC(=N)N)NC(=O)[C@H](CCCNC(=N)N)NC(=O)CNC(=O)OC(C)(C)C)ccc12", "target": "Genome polyprotein, NS2B-NS3 protease (Zika virus, UniProt Q32ZE1)", "test": "substrate", "measurement": "Km", "value": "312 ± 30 µM"}
{"Substance": "methoxymethyl salvinorin B", "target": "Oprk1", "test": "agonist", "how to read": "baseline: G protein over internalization, vs dynorphin A", "measurement": "log bias factor", "value": "0.34 ± 0.25"}
{"Substance": "Cc1ccc2nc(-c3ccc4nc(-c5ccc(NC(=O)c6ccncc6)cc5)sc4c3)sc2c1S(=O)(=O)O", "target": "MBHA DNA substrate", "test": "SYBR Green I displacement", "conditions": "100 µM", "measurement": "DNA bound", "value": "19 ± 7%"}
{"Substance": "ethoxymethyl salvinorin B", "target": "Oprk1", "test": "receptor internalization, agonist", "conditions": "concentration not given", "how to read": "baseline: dynorphin A", "measurement": "log intrinsic relative activity", "value": "0.66 ± 0.23"}
{"Substance": "Cc1ccc(C(=O)Nc2ccc(CN3CCN(C)CC3)c(C(F)(F)F)c2)cc1C#Cc1cnc2cccnn12", "target": "Proto-oncogene tyrosine-protein kinase receptor Ret, KIF5B-RET fusion (RET, Homo sapiens, UniProt P07949, G810C)", "test": "inhibitor", "conditions": "0.02 µM, cell-based", "measurement": "inhibition", "value": "< 25%"}
{"note": "Some of these lines once more:"}
{"Substance": "CN(C(=O)Cc1ccc(Cl)c(Cl)c1)[C@H](CN1CCCC1)c1ccccc1", "target": "Oprk1", "test": "G protein activation, agonist", "conditions": "concentration not given", "how to read": "baseline: dynorphin A", "measurement": "log intrinsic relative activity", "value": "0.75 ± 0.08"}
